# Measured values of several laboratories.
# A part holds a random share of what one study measured. Substitutions count along the parent as printed.

# Block 1
# Target: Histone acetyltransferase KAT6A, winged helix 2, GST fusion (KAT6A, Homo sapiens, UniProt Q92794, residues 85-181)
# Technique: protein binding microarray
# Form: double-stranded DNA, one strand shown
# Matrix: in vitro
# Concentration: not given
# Notes: 8-mer, flanks averaged, mean of 2 arrays, mostly near background
# Baseline: not given
# Direction: higher = stronger binding
# Target sequence (chain): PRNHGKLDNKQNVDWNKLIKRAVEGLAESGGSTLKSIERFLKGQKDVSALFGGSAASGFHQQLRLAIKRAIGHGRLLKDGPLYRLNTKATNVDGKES
Strand,E-score
GACGGTCA,-0.0119
ACGAACAA,0.145
GAAGTCGA,-0.00839
CGGCTAGA,0.0706
GAGTCCCC,-0.196
AACATCCA,-0.0365
TCGCCTCA,0.186
AGAGCTTG,0.0966
TTCCAAAA,0.0891
ATAGTAGA,-0.178
AATGCACC,0.0676
GAGATGTA,-0.157
AAGAGTAA,-0.043
CTCTGCCA,-0.175
AGTTGCAG,-0.0105
GACAGTCA,-0.104
CGGCGACA,0.0245
ATGTTAGA,-0.152
GTTTTGAA,0.189
CTGCGAAG,-0.0269
CACATCGC,-0.0879
AGCAACCG,0.0896
CGCCTGAG,0.119
GGGTCACA,0.00948
ACATCCGC,0.0743

# Block 2
# Target: RING finger protein unkempt homolog, zinc fingers 1-6, GST-SBP tag (UNK, Homo sapiens, UniProt Q9C0B0, residues 30-357)
# UniProt Q9C0B0, sequence (30-357, looked up): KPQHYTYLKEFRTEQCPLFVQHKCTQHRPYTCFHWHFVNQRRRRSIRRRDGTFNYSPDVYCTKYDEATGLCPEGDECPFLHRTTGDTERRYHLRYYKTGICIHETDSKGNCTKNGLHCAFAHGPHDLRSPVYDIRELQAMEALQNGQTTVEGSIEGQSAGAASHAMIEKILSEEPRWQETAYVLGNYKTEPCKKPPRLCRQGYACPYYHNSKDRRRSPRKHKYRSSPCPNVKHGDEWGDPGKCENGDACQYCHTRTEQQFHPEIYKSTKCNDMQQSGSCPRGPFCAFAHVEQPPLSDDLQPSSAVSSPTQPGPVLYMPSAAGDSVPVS
# Technique: RNA Bind-n-Seq
# Form: RNA
# Matrix: in vitro
# Concentration: not given
# Notes: RNA with constant flanks, human and mouse sites, ends assumed
# Baseline: input RNA pool
# Direction: higher = stronger binding
Strand,bound/input enrichment
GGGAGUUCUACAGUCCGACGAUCCAAGAAACAGAAGAUGCUAUUGGAUAUUGCUUGACAUUUGAACACAGAGAAAGAAUGUUUAAUAGACUCCAGGGAACAUGCUUCAAAGGACUUAAUGUUCUCAAGCAAUGUUGAGUUGGCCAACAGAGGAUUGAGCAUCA,0.126 ratio
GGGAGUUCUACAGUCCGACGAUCGAUGGAUUUUACUUUUCAACAACAUAUGAUUUGACCCAUACUUUGCAGCGGCUAUCCAACACUAGUCCUGAAUUCCAAGAAAUGAGUCUCUUGGAAAGGGCAGAUCAGCGGUUUGUAUGGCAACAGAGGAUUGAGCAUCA,0.253 ratio
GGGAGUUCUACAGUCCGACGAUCCUACUAGUUCAUGGGUCUUUGGCUUUUCCUUUGGGGCUAGAUACCUACCAUGGCUGUGUGAUAGCUGCAGCUCGCUAUGGCCGGGGUCGGGUAGUUGUAACUGGUCAUAAGGUUUUAUUUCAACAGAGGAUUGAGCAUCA,0.595 ratio
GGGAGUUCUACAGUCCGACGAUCCUUCAGUCUGUCUUUGUUCAGAGUUAUCUUGACCAAGGAACACAGAUCUUCUUAAACAACAGCAUUGAGAAAUCUGGCUGGCUAUUUAUCCAACUCUAUCAUUCUUUUGUAUCAUCUGUUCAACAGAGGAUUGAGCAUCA,0.116 ratio
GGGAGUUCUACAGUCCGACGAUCCUUGCCCUGAACUGGUCCUCUUGUCCCAUCCUGUCCCCGCCCUGGCCCCUUUGUGCCUCCCCCUCCCUCUUUCUCUCUCCCUUUCUGGCUUGGCAAUCCCUUCUUCACCUCCAACUCCCUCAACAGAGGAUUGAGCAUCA,1.26 ratio
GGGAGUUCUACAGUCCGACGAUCUCGUGGAAGACGUGAGCGAAAUGACCAGCGAACUCAUUUUUUAUCAGACUUGCUGAAGCUGGCUUUUGCGUUUUUUCUACACGUACGCUUAAUUUUGUGGAAUAGUUAAGUGCUAUAUUCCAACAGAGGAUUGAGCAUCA,0.238 ratio
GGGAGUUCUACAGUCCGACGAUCUACGCCGGCAGCCCGGUGCACCACGCGGCUGAGCGACUGGGAGGCGCCCCGACCGGCCAGGGCGUGAGCCCCAGCCCCAGCGCCAUCCUGGAGCGGCGCGACGUGAAGCCAGAUGAGGACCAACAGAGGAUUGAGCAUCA,0.165 ratio
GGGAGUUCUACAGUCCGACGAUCAUUAGAAAUGAUACCUUCAGUGACUCACCAGUUUGGCCAUGGAUCCCAUCAUUGUCUGAUGUAGCAGCUGUGUUUUUCAAUAUGGGGAUUGAUUUUAGAUCUUUGUUUCCCCUGGAGAAUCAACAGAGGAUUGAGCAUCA,0.318 ratio

# Block 3
# Target: Centromere-binding protein 1, full length, His-tagged (CBF1, Saccharomyces cerevisiae, UniProt P17106, residues 1-351)
# UniProt P17106, sequence (whole entry, looked up): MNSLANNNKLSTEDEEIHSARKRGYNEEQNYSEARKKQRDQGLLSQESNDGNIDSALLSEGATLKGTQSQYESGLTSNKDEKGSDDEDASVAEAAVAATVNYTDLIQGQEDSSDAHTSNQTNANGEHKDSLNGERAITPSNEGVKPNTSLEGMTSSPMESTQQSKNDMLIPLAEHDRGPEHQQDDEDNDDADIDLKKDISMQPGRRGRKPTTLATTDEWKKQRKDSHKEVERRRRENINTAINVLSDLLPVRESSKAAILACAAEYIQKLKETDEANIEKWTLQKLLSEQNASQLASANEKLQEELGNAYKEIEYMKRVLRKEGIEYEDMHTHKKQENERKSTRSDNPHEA
# Technique: competition protein-binding microarray
# Form: double-stranded DNA, one strand shown
# Matrix: in vitro
# Concentration: 2 µM
# Notes: whole 60-bp probe, lowest competitor level
# Together with: Pho4 competitor, 0.05 µM
# Direction: higher = stronger binding
Strand,fluorescence intensity
CGTCCTAGAGATTACCACGTGTTTTCCATGAGGAAGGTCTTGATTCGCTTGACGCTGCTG,1450 a.u.
TGCGCAACAACTTGTCACCGAACTTTATGTCTAGAAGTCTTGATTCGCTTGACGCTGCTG,66.8 a.u.
CGGGGTTAAGTTTTTCACGTGGCCTGCTTGCAGCAGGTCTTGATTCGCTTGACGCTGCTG,670 a.u.
AAATTACTAAGTTGGCGGGTGGGTGACGCCGTATGAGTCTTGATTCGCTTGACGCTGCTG,69.1 a.u.
GTTTCGACTTGCCACAACGTGCTTTCGGTTTCTTGTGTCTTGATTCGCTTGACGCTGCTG,98.9 a.u.
ACAGTGTCAAGCTGGCACGATCGTTCTTGCGCAGTCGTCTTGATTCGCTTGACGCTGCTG,61.5 a.u.
CAGATGGTTCTCCATCACGTCTCTGATTATGCCTATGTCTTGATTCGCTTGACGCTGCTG,91.6 a.u.
CATACCCAACCTTGTCACGTTACTTAAGATATTTGTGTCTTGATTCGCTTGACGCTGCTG,1090 a.u.
TGCGCAACAACTTGCTGAGTGGGTGTATGTCTAGAAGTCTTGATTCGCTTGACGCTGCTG,69.3 a.u.
CTTTCCCGATCTTGCCTGGTGGGTGTAGCACATTTGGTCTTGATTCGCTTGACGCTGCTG,85.2 a.u.
GGGCTGTAGCTTGGCGACGTGGGACAGTAGGAAGGCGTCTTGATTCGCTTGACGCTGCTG,67.8 a.u.
GTCTTGTCTCATTGTCACTCCACTTTCCCCACTTCAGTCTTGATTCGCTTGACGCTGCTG,86.3 a.u.
TACTAGCACTGCCACACCGTGCAATCCATACAGGATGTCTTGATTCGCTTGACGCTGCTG,59.1 a.u.
CTCCTGGCTGCCTGCCTCGTGGTGGTCAATTCGCTGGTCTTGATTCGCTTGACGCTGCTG,93 a.u.
TCGGTTACGTACGATAACGTGATTGTGCCACAGGAGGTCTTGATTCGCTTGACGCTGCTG,489 a.u.
TAACATTCTGTAGTTCATGTGTACTAAAAAAAAAAAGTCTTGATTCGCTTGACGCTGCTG,128 a.u.
CTCTTATCGGTATTACTTTCTTATCAATGAAAAATTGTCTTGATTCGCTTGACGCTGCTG,92.4 a.u.
CTTTCCCGATCTTTTCACGTGCGCTTAGCACATTTGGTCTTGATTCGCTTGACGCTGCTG,963 a.u.
CCCAAGAACAGGGCCCTCGTGGTCGTCAAATCTGTGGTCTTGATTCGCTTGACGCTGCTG,116 a.u.
CACTCCCGCAGTCCTGGCGTGATGGGCCACTGCAGTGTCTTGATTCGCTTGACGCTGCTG,59 a.u.
TGATTATACTTTACCCACGCACATCAAACGCATACCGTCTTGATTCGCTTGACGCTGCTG,85.7 a.u.
AATCTACGGTTCCAACACGCACACTTTCATCCTAGAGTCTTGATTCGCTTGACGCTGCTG,74.4 a.u.

# Block 4
# Target: CCND1, cyclin fold, Cln2 fusion (human)
# Technique: yeast growth competition, sequencing
# Matrix: yeast
# Notes: weak parent motif
# Baseline: not given
# Direction: higher = stronger binding
# Starting sequence: NPAT docking peptide (human); PCHRRVLCFDSTT
Change,normalised enrichment score
F9L,-0.308
P1A,-0.159
V6A,0.109
R4A,0.597
H3A,0.808
D10A,-0.156

# Block 5
# Target: ABI1, truncated, D143A, DHFR fusion (Arabidopsis thaliana)
# Technique: DHFR PCA, deep sequencing
# Matrix: yeast
# Notes: methotrexate growth selection, single substitutions
# Together with: (+)-ABA 58 µM
# Baseline: wild-type fitted maximum
# Direction: higher = stronger binding
# Starting sequence: PYL1, truncated, DHFR fusion (Arabidopsis thaliana); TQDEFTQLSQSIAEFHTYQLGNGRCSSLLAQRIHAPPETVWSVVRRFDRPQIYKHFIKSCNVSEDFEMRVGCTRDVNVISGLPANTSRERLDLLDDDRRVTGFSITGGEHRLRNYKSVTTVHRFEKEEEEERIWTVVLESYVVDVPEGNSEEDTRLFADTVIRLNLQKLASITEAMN
Change,relative binding score [%]
R111Q,54
E174V,69.6
M68H,84.5
C25L,53.7
K126L,95
R98N,77.3
R98S,66.8
A84Q,-14.7
T154F,-13.6
Y141H,21.8
N61F,83
R32H,83.8
E151R,77.9
V145Y,6.49
E127P,96.5

# Block 6
# Target: TAR DNA-binding protein 43, full length, His tag (TARDBP, Homo sapiens, UniProt Q13148, residues 1-414)
# Technique: RNA Bind-n-Seq
# Form: RNA
# Matrix: in vitro
# Concentration: 20 nM
# Notes: 6-mer, flanks averaged, single round
# Together with: 150 mM LiCl
# Baseline: input library
# Direction: higher = stronger binding
Strand,6-mer enrichment (R)
UCUUUU,1.3
ACUAUG,0.901
GGUGAG,1.4
CCGCUU,0.939
ACCUUG,0.982
GCGGCG,1.12
AAAUUU,1.05
GUUGCU,1.07
GGCGGU,1.16
UCGUAA,0.846
UGCGAU,0.954
UCAAAG,0.821

# Block 7
# Target: XBP1, bZIP domain (human)
# Technique: DHFR protein complementation
# Matrix: yeast
# Notes: single substitutions, most at no-binding floor
# Baseline: wild-type JUN-FOS pair
# Direction: higher = stronger binding
# Starting sequence: JUN, bZIP domain (human); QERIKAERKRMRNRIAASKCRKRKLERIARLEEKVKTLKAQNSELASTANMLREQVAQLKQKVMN; partner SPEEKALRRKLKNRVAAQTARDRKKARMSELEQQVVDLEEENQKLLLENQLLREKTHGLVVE
Change,binding fitness [natural log]
N42W,-1.35
I28M,-0.613
A46S,-0.88
R30L,-0.251
L31C,-1.45
R30H,-0.389
E32I,-1.42
A29N,-0.949
E54P,-1.46
R53C,-1.43
T37P,-1.51
